Published values pooled from the literature.
Numbered parts are unrelated; each lists some results of a single study.

Sample 1
Target: Histone acetyltransferase KAT6A, winged helix 1, GST fusion (KAT6A, Homo sapiens, UniProt Q92794, residues 1-85)
Method: protein binding microarray
Form: double-stranded DNA, one strand shown
Medium: in vitro
Tested at: not given
Notes: 8-mer, flanks averaged, mean of 2 arrays, mostly near background
Relative to: not given
Reading: higher = stronger binding
Residues (chain): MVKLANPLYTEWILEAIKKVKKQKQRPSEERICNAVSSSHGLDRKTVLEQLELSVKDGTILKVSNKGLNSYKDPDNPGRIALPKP
Oligonucleotide | E-score
ATTTAAGA | -0.216
AAGCTACC | 0.0165
AAAGCGGG | 0.215
ACTATCCA | -0.0956
CGAACGGC | 0.327

Sample 2
Target: RNA binding protein fox-1 homolog 2, RRM domain, GST-SBP tag (RBFOX2, Homo sapiens, UniProt O43251-10, residues 100-194)
Method: RNA Bind-n-Seq
Form: RNA
Medium: in vitro
Tested at: 365 nM
Notes: natural RNA segment, single round, ends assumed
Relative to: no-protein control
Reading: higher = stronger binding
All sequences stand within: GGGAGUUCUACAGUCCGACGAUC … UGGAAUUCUCGGGUGCCAA
Construct (chain): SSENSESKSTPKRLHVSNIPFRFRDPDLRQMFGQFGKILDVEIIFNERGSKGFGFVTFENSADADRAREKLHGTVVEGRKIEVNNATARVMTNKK
Oligonucleotide | RBNS enrichment (R)
GAGGAUGUGAUAUGUGGGGGAGUGAGCACUGGGUUGGGAGCCGGGUCCUGGUUUCCAAUUUGGGUUCUGCUGUGUGACUCUGGGCAAGUCACUCUCCCUCUCUGGGCAUG | 0.783
GGCAACGGAAGUCUUUUAGUGAUGGCUAAUGGGUCUGGGCAGCAUCCCUUCAUGAAUUUUUUUUUAAUCCAAUAUCCGUUGAUUUGAUUGUGAUUAGAGAACCUUGGACA | 1.08
GCAUUUUUGUUUAGACUCCCUGAGGUUCCGUUUUACACAUGAUCCAACGUUAACUACCUUUUUUUCUGUAUGCUUUCCAAAGUCCUUUUUUUUCCCUUAAUGUUGAAUUA | 51.6
AGUGCCAAUGGUGGGAUCAGCAGGAAGACUGAUGUUGGAGACAAUCGGGUGCGGAUUGGUGCUAAUUUAAACAAAAGGGCCUCUGGGGUCUUUUGUUCAAUAUUUUACAA | 0.81
AAAUAUGAGAACAAGGUACAUGCAUUAUGUGUCACAUUACUGGGCAAACUGUUCAAGUAUUUUUUUUUAAACCUCCCUGUAUAGAAAAAAAUCAUUAAGGAUGUAAAAGC | 0.726
UCAUUUAGUAUCUUUUUAACAGAAUUACUUGGAAUAAUGAGAUACAAUAAUCAUAUCUCUUUUGACAUUUUGGAAAUUUUUUUAAUUUUACAAGUACAUUUAACAGAUCA | 0.516
AAUGUAUUUGCUUGGCUUGGAACUUAAGAUUGAACCAAUUUUACAAUAAAUCAAAUUGGAAGAAAUUGGUAAAAGGCAUUUUAGUAAUAUUGGAACUUUUUGAAGUGUGU | 0.993
AAGCUGUGACUGUGCCUGUGAGCGCAGGUGAUGCCACCACCCAGCCGCCCUGUGGACUCCUGGGGCUGGUGCCAGUGCCCCAGGCCUGUGGGUGAGGGGCUCAAGGCCCC | 0.344
CUAGAAGCUGUAAUGGAUGCUCUUUUCCUCCGAUUAUGUAGAAAUGUGCAUUCAAAAGGAAUAGAACGAAUUUCUGUCAUCCCGGUGACCCUCCUGGUGCCGGGCUCUUG | 0.315

Sample 3
Target: Interferon regulatory factor 5, full length, phosphomimetic (IRF5, Homo sapiens, UniProt Q13568-2, residues 1-514, S451D/S453D/S456D/S462D)
Method: protein-binding microarray
Form: double-stranded DNA, one strand shown
Medium: in vitro
Tested at: 940 nM top
Notes: 60-bp whole probe
Together with: salmon DNA 0.4 mg/ml
Relative to: random background probes
Reading: higher = stronger binding
All sequences stand within: GCCTAGCAC … GTCTTGATTCGCTTGACGCTGCTG
Oligonucleotide | fitted relative affinity [z-score]
TTAGGTTTCGGGTTTCGCTTAGTGCTA | 9.99
GACGATTTCGGTTTTCGAGACGTGCTA | 2.13
CTCTACATGTGTTTAAAAAGGTGCTAG | -0.467
TCATTTAGTAGTTTCTAACTGTGCTAG | 0.086
GACGGTATCGGACCGGGGACGTGCTAG | 2.38
TTAGGTCTCCTTCACCTTTAGTGCTAG | 0.327
TCACATCTCACTCTAATACTGTGCTAG | 1.43
CAAACACTAATTTTCAATTCGTGCTAG | 0.212
TCAACTTTCCAATTGTCACTGTGCTAG | 0.62
TTGGAACTGAGTCTCGATTAGTGCTAG | 2.56
TCACATTTATTTACTCTCACTGTGCTA | 2.17
AACGGTATCCTACTGCTGACGTGCTAG | -0.0349
GACGGTCACGGTTTCGGGACGTGCTAG | 2.65

Mixed results
Molecule | target | test | test system | setting | scale | measurement | value
PhoQ, residues 284 288 289 292 302 303 NLALSC | PhoP, residues 12 14 15 18 19 AQCLL (Escherichia coli, UniProt P23836) | Sort-seq, item: YFP reporter | E. coli | PhoQ-PhoP variant library, together with: 10 µM Mg2+ | relative to: high Mg2+ state, higher = stronger signaling | fold induction | 0.646

For quick reference, copied from above (sample 3):
Oligonucleotide | fitted relative affinity [z-score]
GACGGTCACGGTTTCGGGACGTGCTAG | 2.65
TTAGGTCTCCTTCACCTTTAGTGCTAG | 0.327
TTGGAACTGAGTCTCGATTAGTGCTAG | 2.56
